Measurements from different studies.
Each line is one published result; not all experiments were run side by side. ± marks the error that the study gave.
Cell line: MCF7

CC(=O)N[C@H]1C(n2cc([C@@](C)(O)c3cccc(F)c3)nn2)O[C@H](COCc2ccccc2)[C@H](OCc2ccccc2)[C@@H]1OCc1ccccc1 (stereo partly drawn)
IC50 (cell growth or viability, MTS; 72 h): > 100 µM

O=C(CCc1nc2cc(Cl)ccc2[nH]c1=O)NN1C(=O)c2ccccc2C1=O
IC50 (cell growth or viability, MTT): 25.9 µM

CCN1CCC2(CC1)C/C(=N\NC(=O)Nc1ccc(C)cc1)c1ccccc1O2
IC50 (cell growth or viability, MTT; 48 h): 19 µM

COC(Cn1ccn(C)[c]1=[Ag][O]C(C)=O)c1ccccc1 (stereo not drawn)
IC50 (cell growth or viability, MTT; 72 h): 30.7 µM

COc1c(O)cc2oc3cc(O)c(CCC(C)C)c(O)c3c(=O)c2c1CCC(C)C
IC50 (cell growth or viability; 48 h): 8.29 µM

O=C(c1ccncc1)N1N=C2/C(=C/c3ccc4ccccc4c3)CCCC2C1c1ccc2ccccc2c1 (stereo not drawn)
IC50 (cell growth or viability, MTT): 0.0426 µM

C/C(=N\N=c1\sc(/N=N/c2ccc([N+](=O)[O-])cc2[N+](=O)[O-])c(C)n1C)c1c(O)c2ccccc2oc1=O
IC50 (cell growth or viability, LDH; 48 h): 3 µM

Cc1c(-c2cccc(C3=NCCN3)c2)oc(-c2cccc(C3=NCCN3)c2)c1C
IC50 (cell growth or viability, SRB): 0.9 µM

CCCCCCCCCCCCCCCC(=O)Oc1ccc(CO)cc1OC(C)=O
IC50 (cell viability, MTT; 48 h, serum-free medium): 4.1 ± 0.5 µg/mL

Nc1ncnc2c1C(c1cccs1)C1=C(CCCC1=O)O2 (stereo not drawn)
IC50 (cell growth or viability, MTT; 72 h): 45.6 µM

FC(F)(F)c1c(-c2ccc(Br)cc2)noc1-c1cccs1
IC50 (cell growth or viability, MTT; 48 h): 24.8 µM

S=c1[nH]c(=S)c2sc3sc4c(=S)[nH]c(=S)[nH]c4c3c2[nH]1
IC50 (cell growth or viability, MTT): 9.26 µM

CC(=O)O[C@H]1CC[C@]2(C)[C@H]3CC=C4[C@@H]5CC(C)(C)CC[C@]5(C(=O)O)CC[C@@]4(C)[C@]3(C)CC[C@H]2C1(C)C
IC50 (cell growth or viability, SRB): 37.6 µM

CCN(CC)c1ccc2c(c1)[O][Pt-2]1([Cl])[N+](=C2)c2ccccc2[NH+]1c1ccccc1 (stereo not drawn)
IC50 (cell growth or viability, MTT): 14 µM

CCN(CC)c1ccc2c(c1)[O][Pd]([CH2]C#N)[N](c1ccccc1C)c1ncccc1N=C2
IC50 (cell growth or viability, MTT; 48 h): 32.1 µM

COc1ccc(Cn2cc(COc3c(OC)ccc4cc5[n+](cc34)CCc3cc4c(cc3-5)OCO4)nn2)cc1
IC50 (cell growth or viability, MTT): 46.7 µM

COc1c(O)cc2oc3c(Cl)c(O)c(CC=C(C)C)c(O)c3c(=O)c2c1CC=C(C)C
IC50 (cell growth or viability; 48 h): > 40 µM

COc1ccc2cc3[n+](cc2c1OCc1cn(Cc2ccc(Cl)cc2F)nn1)CCc1cc2c(cc1-3)OCO2
IC50 (cell growth or viability, MTT): 150 µM

O=C(/C=C/c1ccccc1)c1ccc(OCc2cn(CCN3C(=O)c4cccc5cccc(c45)C3=O)nn2)cc1
IC50 (cell growth or viability, MTT; 24 h): > 100 µM

NS(=O)(=O)c1ccc(/N=N/c2ccc(O)c(/C=N/c3cccc(O)c3)c2)cc1
IC50 (cell growth or viability, MTT; 72 h): 6.69 µM

CSc1nc(Nc2ccc(C(=O)N/N=C/c3ccc(Cl)cc3Cl)cc2)c(C#N)c(-c2ccccc2)n1
IC50 (cell growth or viability, MTT; 48 h): 26.8 µM

Cc1c(C)c(C)[c-](C)c1C.O=Cc1c[c-]c(-c2ccccn2)cc1.[Cl-].[Ir+3]
IC50 (SRB; 24 h, 72 h recovery): 11.6 ± 0.5 µM

COc1cc(OC)c(-c2coc3c4c(c(OC)cc3c2=O)OC(C)(C)C=C4)cc1OC
IC50 (cell growth or viability, MTT; 72 h): 14.4 µM

CCCCCCCCCCCCCCn1c(-c2cccnc2)nc(-c2ccc(C)cc2)c1-c1ccc(C)cc1
IC50 (cell growth or viability, SRB; 24 h): > 100 µM

CN(C)CCCO/N=C1/C=C2CCC3C(CC[C@]4(C)/C(=C/c5ccccn5)CCC34)[C@@]2(C)CC1 (stereo partly drawn)
IC50 (cell growth or viability, MTT; 72 h): 15.1 µM

C/C(=N\NC(=S)SCc1ccccc1)c1ccc(S(=O)(=O)N2CCC(C)CC2)cc1
IC50 (cell growth or viability, MTT): 122 µM

CCCn1c(-c2cccnc2)nc(-c2ccc(C)cc2)c1-c1ccc(C)cc1
IC50 (cell growth or viability, SRB; 48 h): > 100 µM

Brc1ccc2nc3c4ccc[n+]5c4c4c(ccc[n+]4[Ru-4]546([n+]5ccccc5-c5cccc[n+]54)[n+]4ccccc4-c4cccc[n+]46)c3nc2c1.[O-][Cl+3]([O-])([O-])O.[O-][Cl+3]([O-])([O-])O
IC50 (cell growth or viability, MTT; 72 h): > 100 µM

CC(C)[C@H](NC(=O)[C@H](C(C)C)N(C)C)C(=O)N(C)[C@H](C(=O)N1CCC[C@H]1C(=O)O)C(C)C
IC50: 41 ± 6 µM

COc1cccc2cc(C(=O)NNC(N)=S)c(=O)oc12
IC50 (cell growth or viability, SRB; 72 h): 21.8 µM

CCC(C(=O)O)C1CCC(C)C(C(C)C(O)C(C)C(=O)C(CC)C2OC3(C=CC(NCc4cn(Cc5ccccc5)nn4)C4(CCC(C)(C5CCC(O)(CC)C(C)O5)O4)O3)C(C)CC2C)O1 (stereo not drawn)
IC50 (cell growth or viability, resazurin; 72 h): 0.49 µM

NS(=O)(=O)c1ccc(/N=N/c2ccc(O)c(/C=N/c3cc([N+](=O)[O-])ccc3O)c2)cc1
IC50 (cell growth or viability, MTT; 72 h): 8.23 µM

[Fe+2].c1ccc(P(=NCc2ccccn2)(c2ccccc2)[c-]2cccc2)cc1.c1ccc(P(=NCc2ccccn2)(c2ccccc2)[c-]2cccc2)cc1
IC50 (cell growth or viability, MTT; 74 h): 15 µM

CCCCCCCCCCCCn1c(-c2cccnc2)nc(-c2ccc(C)cc2)c1-c1ccc(C)cc1
IC50 (cell growth or viability, SRB; 24 h): > 100 µM

CC(=O)N1N=C(C)CC1c1ccccc1 (stereo not drawn)
IC50 (cell growth or viability, LDH): 6.2 µM

COc1cc([C@@H]2c3cc4c(cc3[C@H](OC(=O)CCCc3ccc(NS(=O)(=O)c5ccccc5Br)cc3)[C@H]3COC(=O)[C@H]23)OCO4)cc(OC)c1OC
IC50 (cell growth or viability, CCK-8; 24 h): 16.4 µM

Cc1cc(-c2ccccc2)c2ccc3c(-c4ccccc4)cc(C)[n+]4c3c2[n+]1[Re-2]4(=[C]=O)(=[C]=O)(=[C]=O)[O]S(=O)(=O)c1cccc2ccccc12
IC50 (cell growth or viability, resazurin; 72 h): 0.849 µM

C=C1C(=O)OC2C1CCC1(C)CC1CCC1(C)OC21 (stereo not drawn)
IC50 (cell growth or viability, resazurin): 14.1 µM

CC(C)(C)c1ccc(C[n+]2cn(C3CCCC3)c3ccccc32)cc1
IC50 (cell growth or viability, MTT; 48 h): 22 µM

COc1cc2ncnc(Nc3ccc(F)c(Cl)c3)c2cc1NC(=O)N/N=C/c1ccc[nH]1
IC50 (cell growth or viability, MTT; 72 h): 9.31 µM

O=C(NCCCCCCCNc1n[n+]([O-])c2ccccc2[n+]1[O-])C(F)(F)F
IC50 (cytotoxicity, MTT; 24 h, normoxia): > 103 µM

C[C@@H]1O[C@@H](OC(=O)/C=C/c2ccc(O)c(O)c2)[C@H](OC(=O)/C=C/c2ccc(O)c(O)c2)[C@H](O)[C@H]1O
IC50 (cell growth or viability, MTT; 48 h, serum-free): 17.1 µM

C#CCOCC1=C(C(=O)OCC)C(c2cccc(Cl)c2)N2C=CSC2=N1 (stereo not drawn)
IC50 (cell growth or viability, MTT): 62.6 µM

C=CC(OC(C)=O)c1ccc(OC)cc1 (stereo not drawn)
IC50 (MTT; 24 h): > 50 µM

O=C(NCCCCNc1n[n+]([O-])c2ccccc2[n+]1[O-])C(F)(F)F
IC50 (cytotoxicity, MTT; 24 h, normoxia): > 116 µM

COc1ccccc1CNC[C@](O)(COCc1ccccc1)[C@@H]1CC[C@@H](C)C[C@H]1OCc1ccccc1
IC50 (cell growth or viability, MTT; 72 h): 1.8 µM

O=C1c2ccccc2C2C(=O)c3ccccc3OC12 (stereo not drawn)
IC50 (cell growth or viability, resazurin; 96 h): 5.69 µg/mL

CCN1C(=O)CS/C1=N/N=C(\C)c1c(O)c2ccccc2oc1=O
IC50 (cell growth, MTT; 48 h): 24.2 ± 3.7 µM

NC1CCCCC1N.O=C(CCCc1ccccc1)[O][Pt]1([O]C(=O)CCCc2ccccc2)[O]C(=O)C(=O)[O]1
IC50 (cytotoxicity; 72 h): 2.28 ± 0.46 µM

N=C(N)NCCC[C@H](N)C(=O)NC(CC(=O)N[C@@H](Cc1ccccc1)C(=O)N[C@@H](CC(=O)O)C(=O)O)c1ccc2ccccc2c1 (stereo partly drawn)
IC50 (cell growth or viability, ATP luminescence; 72 h): 45 µM

COC(=O)CNc1cc(CS(=O)(=O)c2ccc3ccccc3c2)ccc1OC
IC50 (cell growth or viability, MTS; 48 h): 0.14 µM

O=[C]=[Re-2]1(=[C]=O)(=[C]=O)([O]S(=O)(=O)c2cccc3ccccc23)[n+]2ccc(-c3ccccc3)c3ccc4c(-c5ccccc5)cc[n+]1c4c32
IC50 (cell growth or viability, resazurin; 72 h): 1.7 µM

C[C@H]1CCCC[C@@H]1NC(=O)/C(C#N)=C/c1cn(-c2ccccc2)nc1-c1cccs1
IC50 (cell growth or viability, MTT; 24 h): 97.6 µM

CC1(C)O[C@@H]1CC[C@](C)(O)[C@H]1CC[C@]2(C)[C@@H]1CC[C@@H]1[C@@]3(C)CCC(=O)C(C)(C)[C@@H]3CC[C@]12C
IC50 (cell growth or viability, MTT): > 30 µM

Some of these lines once more:
CC(=O)N[C@H]1C(n2cc([C@@](C)(O)c3cccc(F)c3)nn2)O[C@H](COCc2ccccc2)[C@H](OCc2ccccc2)[C@@H]1OCc1ccccc1 (stereo partly drawn)
IC50 (cell growth or viability, MTS; 72 h): > 100 µM

O=C(CCc1nc2cc(Cl)ccc2[nH]c1=O)NN1C(=O)c2ccccc2C1=O
IC50 (cell growth or viability, MTT): 25.9 µM

CCN1CCC2(CC1)C/C(=N\NC(=O)Nc1ccc(C)cc1)c1ccccc1O2
IC50 (cell growth or viability, MTT; 48 h): 19 µM

COC(Cn1ccn(C)[c]1=[Ag][O]C(C)=O)c1ccccc1 (stereo not drawn)
IC50 (cell growth or viability, MTT; 72 h): 30.7 µM

COc1c(O)cc2oc3cc(O)c(CCC(C)C)c(O)c3c(=O)c2c1CCC(C)C
IC50 (cell growth or viability; 48 h): 8.29 µM
